Measured values from different studies.
Protocols differ between the studies behind these lines. Several values in a cell are separate wells, animals, samples, runs or records. ± marks the error that the study gave.
PKN1: Serine/threonine-protein kinase N1 (PKN1, Homo sapiens, UniProt Q16512)
TOP2A: DNA topoisomerase 2-alpha (TOP2A, Homo sapiens, UniProt P11388)
Chain of UniProt P11388 (whole entry, looked up): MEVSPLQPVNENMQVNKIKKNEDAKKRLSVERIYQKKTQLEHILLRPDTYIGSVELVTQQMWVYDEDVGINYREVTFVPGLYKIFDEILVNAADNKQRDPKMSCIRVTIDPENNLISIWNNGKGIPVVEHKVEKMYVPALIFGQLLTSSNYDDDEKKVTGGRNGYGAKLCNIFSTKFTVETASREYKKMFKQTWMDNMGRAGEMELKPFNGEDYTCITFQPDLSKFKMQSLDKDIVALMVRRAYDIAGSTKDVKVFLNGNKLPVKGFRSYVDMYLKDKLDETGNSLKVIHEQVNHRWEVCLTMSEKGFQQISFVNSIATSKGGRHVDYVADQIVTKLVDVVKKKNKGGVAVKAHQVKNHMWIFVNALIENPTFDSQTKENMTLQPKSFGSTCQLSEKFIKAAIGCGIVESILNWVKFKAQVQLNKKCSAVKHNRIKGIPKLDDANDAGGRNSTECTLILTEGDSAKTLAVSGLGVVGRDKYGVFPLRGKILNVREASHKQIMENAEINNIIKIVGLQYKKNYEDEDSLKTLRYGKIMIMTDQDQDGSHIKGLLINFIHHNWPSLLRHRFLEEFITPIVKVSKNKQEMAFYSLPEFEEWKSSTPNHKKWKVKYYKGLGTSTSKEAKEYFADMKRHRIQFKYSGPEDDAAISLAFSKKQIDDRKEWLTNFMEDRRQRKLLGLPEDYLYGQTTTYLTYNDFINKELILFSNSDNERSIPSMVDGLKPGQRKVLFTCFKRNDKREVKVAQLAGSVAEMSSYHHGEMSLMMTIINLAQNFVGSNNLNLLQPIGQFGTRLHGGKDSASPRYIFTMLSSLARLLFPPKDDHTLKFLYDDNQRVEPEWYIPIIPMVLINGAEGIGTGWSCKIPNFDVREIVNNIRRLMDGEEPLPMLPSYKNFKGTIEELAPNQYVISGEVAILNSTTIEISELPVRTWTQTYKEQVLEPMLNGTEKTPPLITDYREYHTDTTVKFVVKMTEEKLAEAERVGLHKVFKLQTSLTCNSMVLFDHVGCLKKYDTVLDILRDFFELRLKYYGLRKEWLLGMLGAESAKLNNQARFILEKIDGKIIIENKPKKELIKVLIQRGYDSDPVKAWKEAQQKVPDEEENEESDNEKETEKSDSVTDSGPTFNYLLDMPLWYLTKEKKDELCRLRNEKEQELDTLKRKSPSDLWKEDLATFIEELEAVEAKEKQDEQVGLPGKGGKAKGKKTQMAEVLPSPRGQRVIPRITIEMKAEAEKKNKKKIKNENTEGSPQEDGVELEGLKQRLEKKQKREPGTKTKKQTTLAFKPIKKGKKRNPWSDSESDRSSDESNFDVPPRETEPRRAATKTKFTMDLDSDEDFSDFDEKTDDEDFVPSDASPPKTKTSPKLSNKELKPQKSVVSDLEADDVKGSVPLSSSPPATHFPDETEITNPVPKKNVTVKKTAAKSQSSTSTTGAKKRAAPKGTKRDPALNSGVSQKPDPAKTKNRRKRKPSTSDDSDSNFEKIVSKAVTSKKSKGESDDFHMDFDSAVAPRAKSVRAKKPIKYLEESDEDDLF
Pteridine reductase 1: Pteridine reductase 1 (Leishmania major, UniProt Q01782)
Chain of UniProt Q01782 (whole entry, looked up): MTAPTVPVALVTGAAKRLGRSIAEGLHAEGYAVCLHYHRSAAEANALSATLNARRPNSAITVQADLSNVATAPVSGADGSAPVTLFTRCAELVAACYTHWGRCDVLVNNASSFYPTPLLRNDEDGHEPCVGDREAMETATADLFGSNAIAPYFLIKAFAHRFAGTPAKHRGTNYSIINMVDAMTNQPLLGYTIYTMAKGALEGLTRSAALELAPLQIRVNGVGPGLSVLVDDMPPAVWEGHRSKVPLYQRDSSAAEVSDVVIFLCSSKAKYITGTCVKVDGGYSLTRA
SETDB1 triple tudor domain: Histone-lysine N-methyltransferase SETDB1, triple tudor domain (SETDB1, Homo sapiens, UniProt Q15047)
BEST2: Bestrophin-2a (BEST2, Homo sapiens, UniProt Q8NFU1)
Chain of UniProt Q8NFU1 (whole entry, looked up): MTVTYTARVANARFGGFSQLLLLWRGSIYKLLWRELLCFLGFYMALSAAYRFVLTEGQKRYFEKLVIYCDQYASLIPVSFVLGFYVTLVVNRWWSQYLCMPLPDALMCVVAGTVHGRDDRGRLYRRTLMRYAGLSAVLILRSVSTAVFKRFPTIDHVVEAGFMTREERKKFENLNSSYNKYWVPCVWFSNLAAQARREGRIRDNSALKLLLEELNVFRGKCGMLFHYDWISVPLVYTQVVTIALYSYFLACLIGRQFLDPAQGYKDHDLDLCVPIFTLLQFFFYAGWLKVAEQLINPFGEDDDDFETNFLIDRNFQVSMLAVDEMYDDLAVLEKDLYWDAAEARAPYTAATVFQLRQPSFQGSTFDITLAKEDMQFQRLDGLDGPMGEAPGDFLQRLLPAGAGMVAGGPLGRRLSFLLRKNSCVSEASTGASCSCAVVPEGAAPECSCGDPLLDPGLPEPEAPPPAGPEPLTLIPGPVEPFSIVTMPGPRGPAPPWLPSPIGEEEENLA
T1: ssDNA, aptamer; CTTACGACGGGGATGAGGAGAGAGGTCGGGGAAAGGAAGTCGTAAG
Chain of UniProt Q16774 (whole entry, unmodified, looked up): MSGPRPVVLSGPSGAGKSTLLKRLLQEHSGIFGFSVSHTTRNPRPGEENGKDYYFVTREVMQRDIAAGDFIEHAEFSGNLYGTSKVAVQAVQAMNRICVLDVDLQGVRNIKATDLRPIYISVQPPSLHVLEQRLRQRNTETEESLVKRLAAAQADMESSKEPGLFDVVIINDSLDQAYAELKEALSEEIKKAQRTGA
Chain of UniProt P51575 (whole entry, unmodified, looked up): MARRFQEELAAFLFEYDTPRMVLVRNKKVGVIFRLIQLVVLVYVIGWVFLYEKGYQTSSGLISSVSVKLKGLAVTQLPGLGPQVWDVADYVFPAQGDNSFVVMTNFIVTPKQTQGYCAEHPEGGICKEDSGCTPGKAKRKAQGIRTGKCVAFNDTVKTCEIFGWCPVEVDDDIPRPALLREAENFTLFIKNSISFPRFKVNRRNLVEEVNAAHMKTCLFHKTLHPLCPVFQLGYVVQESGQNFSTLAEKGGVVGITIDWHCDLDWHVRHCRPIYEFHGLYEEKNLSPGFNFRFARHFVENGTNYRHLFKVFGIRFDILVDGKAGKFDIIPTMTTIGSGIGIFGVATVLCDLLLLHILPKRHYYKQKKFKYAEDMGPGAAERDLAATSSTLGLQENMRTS
Chain of UniProt Q7TMS5 (whole entry, unmodified, looked up): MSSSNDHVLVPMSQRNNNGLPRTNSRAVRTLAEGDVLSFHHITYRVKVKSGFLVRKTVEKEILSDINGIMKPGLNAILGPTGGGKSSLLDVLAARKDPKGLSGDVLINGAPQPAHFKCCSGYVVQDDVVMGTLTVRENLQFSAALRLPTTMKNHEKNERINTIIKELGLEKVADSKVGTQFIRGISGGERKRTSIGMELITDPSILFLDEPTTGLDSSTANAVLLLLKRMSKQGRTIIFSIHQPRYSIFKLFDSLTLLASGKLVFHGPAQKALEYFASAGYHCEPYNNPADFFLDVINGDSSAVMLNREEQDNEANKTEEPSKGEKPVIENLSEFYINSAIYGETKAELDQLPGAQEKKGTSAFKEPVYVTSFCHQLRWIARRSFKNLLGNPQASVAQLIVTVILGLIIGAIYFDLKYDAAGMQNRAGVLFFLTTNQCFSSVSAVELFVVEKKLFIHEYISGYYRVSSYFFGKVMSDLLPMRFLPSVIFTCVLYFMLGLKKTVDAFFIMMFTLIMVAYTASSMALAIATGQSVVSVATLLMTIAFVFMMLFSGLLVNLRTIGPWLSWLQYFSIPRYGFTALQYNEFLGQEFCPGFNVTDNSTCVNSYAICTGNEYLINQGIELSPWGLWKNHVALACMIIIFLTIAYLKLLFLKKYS
Chain of UniProt P18669 (whole entry, looked up): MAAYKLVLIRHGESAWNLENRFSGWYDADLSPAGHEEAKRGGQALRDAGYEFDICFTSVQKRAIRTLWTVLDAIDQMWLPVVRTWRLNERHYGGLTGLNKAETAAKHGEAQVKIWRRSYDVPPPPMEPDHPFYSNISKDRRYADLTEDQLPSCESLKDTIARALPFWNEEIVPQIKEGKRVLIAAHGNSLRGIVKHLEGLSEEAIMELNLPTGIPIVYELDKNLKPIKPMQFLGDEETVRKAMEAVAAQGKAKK
Chain of UniProt Q96RI1 (whole entry, looked up): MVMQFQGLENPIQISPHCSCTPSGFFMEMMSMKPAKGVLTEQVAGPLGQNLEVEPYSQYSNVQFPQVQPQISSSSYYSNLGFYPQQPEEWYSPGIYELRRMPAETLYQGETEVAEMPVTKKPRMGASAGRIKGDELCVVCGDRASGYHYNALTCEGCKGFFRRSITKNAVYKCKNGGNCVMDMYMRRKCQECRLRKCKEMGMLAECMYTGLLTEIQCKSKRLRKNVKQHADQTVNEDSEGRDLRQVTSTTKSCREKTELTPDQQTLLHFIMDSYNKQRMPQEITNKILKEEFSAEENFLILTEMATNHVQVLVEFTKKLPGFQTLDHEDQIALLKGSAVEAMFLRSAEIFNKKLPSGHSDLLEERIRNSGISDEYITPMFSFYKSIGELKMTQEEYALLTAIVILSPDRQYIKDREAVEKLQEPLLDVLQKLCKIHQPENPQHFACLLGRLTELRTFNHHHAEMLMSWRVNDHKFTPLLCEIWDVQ
Chain of UniProt O75030 (1-296, unmodified, looked up): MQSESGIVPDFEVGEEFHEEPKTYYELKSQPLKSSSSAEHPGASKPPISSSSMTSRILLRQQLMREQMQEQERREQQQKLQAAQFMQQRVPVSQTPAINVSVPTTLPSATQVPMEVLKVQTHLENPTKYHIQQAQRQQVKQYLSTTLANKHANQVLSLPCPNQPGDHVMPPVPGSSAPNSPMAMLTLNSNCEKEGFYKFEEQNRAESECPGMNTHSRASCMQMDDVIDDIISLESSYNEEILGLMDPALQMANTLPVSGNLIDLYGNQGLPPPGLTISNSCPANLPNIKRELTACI
Chain of UniProt Q9NZQ7 (whole entry, looked up): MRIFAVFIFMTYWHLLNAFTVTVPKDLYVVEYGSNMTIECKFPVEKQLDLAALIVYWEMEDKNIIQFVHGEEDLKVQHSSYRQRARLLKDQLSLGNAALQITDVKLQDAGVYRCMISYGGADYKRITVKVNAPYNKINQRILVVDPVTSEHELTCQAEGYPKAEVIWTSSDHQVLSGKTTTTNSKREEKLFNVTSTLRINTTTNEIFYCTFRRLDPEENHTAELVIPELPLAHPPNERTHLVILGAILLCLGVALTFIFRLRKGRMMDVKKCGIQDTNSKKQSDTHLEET

Oc1ccccc1-c1n[nH]cc1-c1ccnc2ccccc12  log2 fold change (Casein kinase I HRR25 (Candida albicans, UniProt Q59S64); kinase binding, MIB/MS competition; Candida albicans lysate; 1 µM; baseline: DMSO, negative = stronger binding): 0.1
CCS(=O)(=O)c1cccc(-c2cc(C(=O)NC3CCN(C)CC3)c(C)c3[nH]c4ncc(C)cc4c23)c1  Hill slope (PKN1; inhibitor): -0.863
Cc1nc(CSc2nc(SCc3ccc(C(F)(F)F)cc3)nc(=O)[nH]2)cs1  decatenated DNA (TOP2A; decatenation; 31.25 µM, replicate 1): 81.6%
CCOC(=O)C1CCN(C(=O)c2ccc(N(C)Cc3cnc4nc(N)nc(N)c4n3)cc2)CC1  partition index (Pteridine reductase 1; hDHFR weight 10; baseline: LmPTR1, LmDHFR over hDHFR, 1.0 selective, 0.0 non-selective): 0.92
CC(=O)/N=c1/sc(S(N)(=O)=O)nn1C  intrinsic binding ΔG (CA4 (Homo sapiens, UniProt P22748); ITC; concentration not given, 25 °C): -10.4 kcal/mol
CC(C)c1noc2ncc(C(=O)c3ccccc3O)cc12  current potentiation (Otop1 (Mus musculus, UniProt Q80VM9); proton current, potentiator, whole-cell patch-clamp; HEK-293T; 10 µM, pH 5.5; baseline: current before compound): 1.69 fold
CC(C)(NCCCc1ccc(C(F)(F)F)c(Cl)c1)c1cccc(NC2=CC(=O)N(C3CCC(=O)NC3=O)C2=O)c1 (stereo not drawn)  Dmax (Cereblon/Ikaros (Homo sapiens, UniProt Q13422+Q96SW2); protein degradation, degrader, HiBiT luminescence; Jurkat): 84%
FC1(F)Oc2ccc(CCOCCCCCc3ccccc3)cc2O1  Emax (ATP2A2 (Sus scrofa, UniProt P11607); ATPase Vmax increase, activator; pig microsomes; 0.1 to 50 µM; baseline: vehicle): ~16%
O=c1nc(SCc2cc(F)cc(C(F)(F)F)c2)nc(SCc2cccc(C(F)(F)F)c2)[nH]1  mean decatenated DNA (TOP2A; decatenation; 7.8 µM): 95.4%
Cc1cccc(N2CC(C(=O)O)CC2=O)c1 (stereo not drawn)  fold enrichment (SETDB1 triple tudor domain; binding, affinity selection mass spectrometry; baseline: other proteins in batch): 1.04
N#Cc1ccc2c(-c3ccncc3)c(-c3ccc(F)cc3)nn2c1  log2 fold change (Mitogen-activated protein kinase MKC1 (MKC1, Candida albicans, UniProt P43068); kinase binding, competitor, MIB/MS competition, item: MKC1; Candida albicans cell lysate; 1 µM; baseline: DMSO): 0.309
Nc1ncnc2c1ncn2[C@@H]1O[C@H](COP(=O)(O)OP(=O)(O)OP(=O)(O)O)[C@@H](O)[C@H]1O  Kd (T1, ssDNA, aptamer; ITC): 703 nM
CC1CCCN(C(=O)c2cc3ncccn3n2)C1 (stereo not drawn)  fold enrichment (SETDB1 triple tudor domain; binding, affinity selection mass spectrometry; baseline: other proteins in batch): 0.596
OCCN1CCN(CCCN2c3ccccc3Sc3ccc(C(F)(F)F)cc32)CC1  Hill slope (KCNK2 (Homo sapiens, UniProt O95069); PIP2 binding, BRET competition; added: FL-PIP2 500 nM): 1.02 ± 0.35
COc1cc(C(=O)NS(=O)(=O)c2ccccc2C)ccc1Cc1cn(C)c2ccc(NC(=O)OC3CCCC3)cc12  Hill coefficient (LRRC8A/LRRC8C (Homo sapiens, UniProt Q8IWT6+Q8TDW0); whole-cell patch clamp; HCT116 LRRC8-/- expressing LRRC8A/C): ~1
O=C(O)c1ccc(O)cc1  current density (BEST2; whole-cell patch clamp; HEK293 transiently expressing channel; concentration not given, membrane potential -80 mV): -111 pA/pF and -199 pA/pF and -130 pA/pF and -227 pA/pF and -205 pA/pF and -84.1 pA/pF and -257 pA/pF
COc1cccc2c(Nc3ccc4[nH]c(C(=O)N/N=C/c5ccc(SC)cc5)cc4c3)cc(C)nc12  activation (Bile acid receptor (NR1H4, Homo sapiens, UniProt Q96RI1); reporter gene, Gal4 hybrid reporter; 3 µM; baseline: vehicle): 0.75 fold
O=c1nc(SCc2cc(F)cc(C(F)(F)F)c2)nc(SCc2ccc3nc(Cl)ccc3c2)[nH]1  linear DNA (TOP2A; DNA cleavage; 125 µM, replicate 2): 3.73%
O=P(O)(O)O[C@H]1O[C@H](CO)[C@@H](O)[C@H](O)[C@H]1O  enzyme activity (Phosphoglycerate mutase 1 (Homo sapiens, UniProt P18669); activator, sugar phosphate screen; concentration not given; baseline: untreated control): 99.4% and 88.5% and 104%
CCCCC[C@H](O)/C=C/[C@H]1C(=O)C[C@H](O)[C@@H]1C/C=C\CCCC(=O)O  activation (PTGDR (Homo sapiens, UniProt Q13258, D262A); agonist; 0.01953 µM): 74.5%
COc1ccc(C(=O)/C=C/c2cccc(-c3cccc(-c4ccc(CNCCO)c(OC)n4)c3C)c2)cc1  degradation (CD274 (Homo sapiens, UniProt Q9NZQ7); degrader, western blot; HL-60; 1 µM): < 5%
Nc1ccc(C(=O)O)cc1  current density (BEST2; whole-cell patch clamp; HEK293 transiently expressing channel; concentration not given, membrane potential 0 mV): -1.31 pA/pF and -0.74 pA/pF and -0.97 pA/pF and 0.02 pA/pF and -1.55 pA/pF and -1.35 pA/pF
N#Cc1ccc(C[C@@H](NC(=O)c2cc3ccccc3[nH]2)C(=O)N2CCc3ccccc32)cc1  agonist activity (FPR1 (Homo sapiens, UniProt P21462); calcium mobilization, agonist; HL-60; concentration not given): inactive
C=CC(=O)N1CCC(COCC(=O)N2CCN(c3nc(-c4cnc(N)nc4C(F)F)nc(N4CCOC[C@@H]4C)n3)CC2)CC1  remaining binding (LIM domain kinase 2 (LIMK2, Homo sapiens, UniProt P53671); KINOMEscan; 1 µM): 100%
CC[C@@H]1[C@H](F)C(=O)N[C@@H]1COc1nccc2cc(C(N)=O)c(OC)cc12  inhibition (CHEK2 (Homo sapiens, UniProt O96017); ATP-site probe binding, ActivX profiling; THP-1 cell lysate; 0.01 mM, Lys1 site): 4.5%
COc1cc(F)ccc1-c1ncnc(Nc2cccc(C[S@](C)(=N)=O)c2)n1  remaining activity (PHKG2 (Homo sapiens, UniProt P15735); kinase activity; 10 µM, added: 10 µM ATP): 98%
Nc1ncnc2c1ncn2[C@@H]1O[C@H](CO[P@](=O)(O)O[P@](=O)(O)O[P@@](=O)(O)S)[C@@H](O)[C@H]1O  ΔH (GUK1 (Homo sapiens, UniProt Q16774); binding, isothermal titration calorimetry; molar ratio 2.388, fitted curve): -0.372 kcal/mol
CC(NC(=O)CCCc1ccc2ccc3cccc4ccc1c2c34)C(=O)NO (stereo not drawn)  binding stoichiometry (HDAC8 (Homo sapiens, UniProt Q9BY41); ITC; Tris buffer; concentration not given, pH 7.5): 0.9
O=c1nc(SCc2cc(F)cc(C(F)(F)F)c2)nc(SCc2nc3ccccc3[nH]2)[nH]1  mean decatenated DNA (TOP2A; decatenation; 7.8 µM): 100%
C=CC(=O)N1CCC[C@@H](n2nc(-c3ccc(Oc4ccccc4)cc3)c3c(N)ncnc32)C1  remaining activity (TXK (Homo sapiens, UniProt P42681); 0.1 µM): 73.6%
COc1ccc2c3c([nH]c2c1)[C@H](CC(C)C)N1C(=O)[C@H](CC(=O)NC(C)C)NC(=O)[C@@H]1C3  efflux (Broad substrate specificity ATP-binding cassette transporter ABCG2 (Mus musculus, UniProt Q7TMS5); inhibitor, item: protoporphyrin IX; Fech-mutant mice, red blood cells; 10 µM, 1 h): 8.9% and 8.3% and 8.1% and 3% and 8.8% and 2.9%
NCCCC(=O)O  normalised MST signal (SLC6A6 (Homo sapiens, UniProt P31641, G62A); binding, microscale thermophoresis; 61 nM, room temperature, added: 50 nM labelled protein; higher = more binding): -0.0463
Nc1ncnc2c1ncn2[C@@H]1O[C@H](COP(=O)(O)CP(=O)(O)OP(=O)(O)O)[C@@H](O)[C@H]1O  specific binding (P2X purinoceptor 1 (P2RX1, Homo sapiens, UniProt P51575, D170A); saturation binding; 52 nM): 183 corrected cpm and 159 corrected cpm and 224 corrected cpm
CO[C@@H]1[C@@H]2OP(=O)(O)OC[C@H]2O[C@H]1n1c(Sc2ccc(Cl)cc2)nc2c(N)ncnc21  relative binding affinity (anti-cGMP antibody; antibody binding, competitive cGMP EIA; concentration not given, acetylated samples; baseline: EC50 cGMP over EC50 cpd, higher = stronger binding): 0.0002
O=c1nc(SCc2cc(F)cc(C(F)(F)F)c2)nc(SCc2csc3ccc(Cl)cc23)[nH]1  mean relaxed DNA (TOP2A; DNA relaxation; 31.25 µM): 3.4%
O=C(O)C1=CCNCC1  current density (BEST2; whole-cell patch clamp; HEK293 transiently expressing channel; concentration not given, membrane potential -20 mV): -35 pA/pF and -53.5 pA/pF and -49.4 pA/pF and -87 pA/pF and -38.2 pA/pF
O=c1cc(-c2ccc(OS(=O)(=O)O)cc2)oc2cc(OS(=O)(=O)O)cc(OCc3cccc(COc4cc(OS(=O)(=O)O)cc5oc(-c6ccc(OS(=O)(=O)O)cc6)cc(=O)c45)n3)c12  Km (Neutrophil elastase (ELANE, Homo sapiens, UniProt P08246); 250 nM, added: chromogenic substrate): 0.908 ± 0.065 mM
Clc1ccc(C2(c3ccc(-c4cn[nH]c4)cc3)CCNCC2)cc1  Hill slope (PKN1; inhibitor): -1.09
Cc1nc(CSc2nc(SCc3cc(F)cc(C(F)(F)F)c3)nc(=O)[nH]2)cs1  decatenated DNA (TOP2A; decatenation; 31.25 µM, replicate 2): 86.6%
CC(=O)N1CCN(CCOc2ccc(C3CCN(C4=Nn5c(nnc5C(F)(F)F)CC4)CC3)cc2)CC1  response (Androgen receptor (AR, Homo sapiens, UniProt P10275); antagonist, nuclear translocation; 100 µM; baseline: control): > 75%
C=CC(=O)N1CCN(c2nc(OC[C@@H]3CCCN3C)nc3c(F)c(-c4nc(N)cc(C)c4C(F)(F)F)c(Cl)cc23)[C@@H](C)C1  association rate constant (GTPase KRas, GDP-bound (KRAS, Homo sapiens, UniProt P01116, G12V); binding, surface plasmon resonance): 94400 ± 22000 M⁻¹ s⁻¹
Nc1nc2c(ncn2[C@@H]2O[C@H](COP(=O)(O)O)[C@@H](O)[C@H]2O)c(=O)[nH]1  reaction rate (GUK1 (Homo sapiens, UniProt Q16774, D103A); enzyme activity, NADH-coupled; 500 µM): 13.5 s⁻¹ and 13.8 s⁻¹ and 13.7 s⁻¹
CC(C)c1ccc(CSc2nc(SCc3ccc4sccc4c3)[nH]c(=O)n2)cc1  decatenated DNA (TOP2A; decatenation; 15.6 µM, replicate 2): 0.81%
O=C(O)c1cc2ccc(C#CC3(O)CCCCC3)cc2n1-c1cccc(Cl)c1  -TΔS (Microphthalmia-associated transcription factor, residues 1-296 (Homo sapiens, UniProt O75030); isothermal titration calorimetry; 25 °C): 4.45 kcal/mol and 1.49 kcal/mol
O=C(O)CC[C@@H](C(=O)O)N1C(=O)c2ccccc2C1=O  thermal shift (Uncharacterized protein (Pelagibacter ubique, UniProt Q4FM26); differential scanning fluorimetry; Candidatus Pelagibacter ubique; in-house screen): 6.45 °C
CN(Cc1cnc2nc(N)nc(N)c2n1)c1ccc(C(=O)N[C@@H](CCC(=O)O)C(=O)O)cc1  uptake (Proton-coupled folate transporter (Homo sapiens, UniProt Q96NT5, S250A); cells transfected with S250A mutant; 2 min, pH 5.5, 37 °C): 15%
[O-][S+]1CCCCS1 (stereo not drawn)  target engagement (SOD1 (Homo sapiens, UniProt P00441, G94A); item: SOD1 dimer; SOD1 G93A transgenic mice, blood; sc, 30 mg/kg twice daily): 85.6%
Cc1cc(=O)oc2cc(O[C@@H]3O[C@H](CO)[C@@H](O)[C@H](O)[C@H]3O)ccc12  Vmax/Km (GBA1 (Homo sapiens, UniProt P04062, R534H); substrate): 0.002 pmol/min/µM
NC(N)=S  Km (Urea transporter 1 (Homo sapiens, UniProt Q13336); transport): 19 mM
COc1ccc(Oc2ccc(CNCc3cnc4nc(N)nc(N)c4n3)cc2)cc1  partition index (Pteridine reductase 1; hDHFR weight 10; baseline: LmPTR1, LmDHFR over hDHFR, 1.0 selective, 0.0 non-selective): 0.98
COc1cc(/C=C/c2ccc(O)cc2)cc(OC)c1  ΔH of binding (O-methyltransferase (Sorghum bicolor, UniProt A0A1B6PFV1); concentration not given, added: SAM+): -5.39 ± 0.145 kcal/mol
